{"data": "Measurements gathered from unrelated publications", "note": "Each numbered part is a random draw from the data of one study; scales do not carry over between parts. Changes are numbered by the printed parent chain."}
{"data": "Set 1", "target": "HLA class I histocompatibility antigen, A alpha chain, allele A*80:01 (Homo sapiens, UniProt P04439)", "effect on": "peptide-MHC binding", "form": "peptide", "tested at": "concentration not given"}
{"Molecule": "SAEVVTLWY", "binding": "inactive"}
{"Molecule": "TMMRHRREL", "binding": "inactive"}
{"Molecule": "KQIVIINPM", "binding": "inactive"}
{"Molecule": "RAWDPQPAM", "binding": "inactive"}
{"Molecule": "YLKKLDDFY", "binding": "inactive"}
{"Molecule": "ILFDRLPIA", "binding": "inactive"}
{"Molecule": "KIFKVTGEF", "binding": "inactive"}
{"Molecule": "FAEGVIAFL", "binding": "inactive"}
{"Molecule": "HTAEIQQFF", "binding": "inactive"}
{"Molecule": "SPGDNSAKF", "binding": "inactive"}
{"Molecule": "VMTDGPANK", "binding": "inactive"}
{"Molecule": "TMRTPLFPW", "binding": "inactive"}
{"Molecule": "WTGMVDGWY", "binding": "inactive"}
{"Molecule": "APRRRDEEL", "binding": "inactive"}
{"Molecule": "FVRSSPANF", "binding": "inactive"}
{"data": "Set 2", "target": "CCNB2, cyclin fold, Cln2 fusion (human)", "method": "yeast growth competition, sequencing", "medium": "yeast", "setting": "weak parent motif", "reference": "not given", "reading": "higher = stronger binding", "starting sequence": "viral docking peptide; KGVKRKLFAEDSS; partner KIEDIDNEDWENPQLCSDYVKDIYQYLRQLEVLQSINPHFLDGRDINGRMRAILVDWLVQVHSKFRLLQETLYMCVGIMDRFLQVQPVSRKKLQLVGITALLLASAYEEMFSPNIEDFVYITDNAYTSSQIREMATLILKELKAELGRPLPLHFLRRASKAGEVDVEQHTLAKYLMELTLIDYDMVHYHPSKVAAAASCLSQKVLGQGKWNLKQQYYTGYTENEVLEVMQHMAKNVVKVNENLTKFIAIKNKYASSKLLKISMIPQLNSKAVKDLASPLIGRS"}
{"Substitution": "KGVKKKLFAEDSS [R5K]", "normalised enrichment score": 0.657}
{"Substitution": "KGSKRKLFAEDSS [V3S]", "normalised enrichment score": 0.169}
{"Substitution": "KGVKRKHFAEDSS [L7H]", "normalised enrichment score": 0.276}
{"Substitution": "KGVKAKAFAEDSS [R5A L7A]", "normalised enrichment score": 0.431}
{"Substitution": "KGVKRKYFAEDSS [L7Y]", "normalised enrichment score": 0.414}
{"Substitution": "KGVKRKWFAEDSS [L7W]", "normalised enrichment score": -0.114}
{"Substitution": "KGVKRKLFAEPSS [D11P]", "normalised enrichment score": 0.626}
{"Substitution": "KGVKRKLFAEDDS [S12D]", "normalised enrichment score": 1.35}
{"Substitution": "KGVNRKLFAEDSS [K4N]", "normalised enrichment score": 0.206}
{"Substitution": "KGVKSKLFAEDSS [R5S]", "normalised enrichment score": 0.181}
{"Substitution": "KAVKRKLFAEDSS [G2A]", "normalised enrichment score": 0.561}
{"Substitution": "KGVKRYLFAEDSS [K6Y]", "normalised enrichment score": 0.24}
{"Substitution": "KGVKRKLSAEDSS [F8S]", "normalised enrichment score": -0.476}
{"Substitution": "KGVKRKLCAEDSS [F8C]", "normalised enrichment score": 0.319}
{"Substitution": "KGVKRKLFAEDNS [S12N]", "normalised enrichment score": 0.845}
{"Substitution": "KGVLRKLFAEDSS [K4L]", "normalised enrichment score": 0.398}
{"Substitution": "AGVKRKLFAEDSS [K1A]", "normalised enrichment score": 0.949}
{"Substitution": "KGVKRKTFAEDSS [L7T]", "normalised enrichment score": 0.608}
{"Substitution": "KGVKRKLFAEESS [D11E]", "normalised enrichment score": 0.785}
{"Substitution": "KGVKRFLFAEDSS [K6F]", "normalised enrichment score": 0.284}
{"Substitution": "KGVKRCLFAEDSS [K6C]", "normalised enrichment score": 0.28}
{"data": "Set 3", "target": "Hepatocyte nuclear factor 3-beta, forkhead domain (FOXA2, Homo sapiens, UniProt Q9Y261, residues 142-269)", "method": "protein-binding microarray", "form": "hairpin DNA", "medium": "in vitro", "tested at": "not given", "setting": "whole hairpin DNA, median over replicate spots", "reference": "not given", "reading": "higher = stronger binding", "Target sequence (chain)": "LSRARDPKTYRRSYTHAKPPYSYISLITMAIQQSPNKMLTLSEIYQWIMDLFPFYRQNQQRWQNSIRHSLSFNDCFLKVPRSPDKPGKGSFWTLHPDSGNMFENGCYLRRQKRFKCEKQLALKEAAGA"}
{"Oligonucleotide": "GAGGCCATGTAAACTACGCCTCCTGGCGTAGTTTACATGGCCTCACACTC", "median fluorescence [a.u.]": 3080}
{"Oligonucleotide": "GAGGCCTTGCAAACAACGCCTCCTGGCGTTGTTTGCAAGGCCTCACACTC", "median fluorescence [a.u.]": 3150}
{"Oligonucleotide": "GAGGCCATGCACACAACGCCTCCTGGCGTTGTGTGCATGGCCTCACACTC", "median fluorescence [a.u.]": 3360}
{"Oligonucleotide": "GAGGCCATGTAAACCACGCCTCCTGGCGTGGTTTACATGGCCTCACACTC (5mC at 15)", "median fluorescence [a.u.]": 3200}
{"Oligonucleotide": "GAGGCCATGCACACAACGCCTCCTGGCGTTGTGTGCATGGCCTCACACTC (5mC at 12)", "median fluorescence [a.u.]": 3290}
{"Oligonucleotide": "GAGGCCATGTAAACGACGCCTCCTGGCGTCGTTTACATGGCCTCACACTC (5mC at 14 30)", "median fluorescence [a.u.]": 3760}
{"Oligonucleotide": "GAGGCCCGGCAAACAACGCCTCCTGGCGTTGTTTGCCGGGCCTCACACTC (5mC at 37)", "median fluorescence [a.u.]": 3860}
{"Oligonucleotide": "GAGGCCATGCAAACAACGCCTCCTGGCGTTGTTTGCATGGCCTCACACTC (5mC at 10)", "median fluorescence [a.u.]": 6170}
{"data": "Single results of other studies"}
{"SMILES": "O=C(NCc1ncc(C(F)(F)F)cc1Cl)c1ccc2c(c1)C1(CCS(=O)(=O)CC1)[C@H](C1CC1)N2S(=O)(=O)c1ccc(F)cc1", "target": "Calcium-dependent protein kinase 1 (CDPK1, Plasmodium falciparum, UniProt P62344)", "test": "cell-free assay, competition with immobilised ligand", "setting": "1 µM", "quantity": "remaining binding", "value": "85%"}
